Measured values pooled from the literature.
Protocols differ between the studies behind these lines. ± marks the error that the study gave.

| Structure (SMILES) | test | test system | setting | how to read | endpoint | result |
| --- | --- | --- | --- | --- | --- | --- |
| NCC(=O)N1CCC[C@H]1C(=O)N1C[C@H](O)C[C@H]1C(=O)O | potentiometric titration | – | 37 °C, with: Fe(III) | – | log beta | 12 |
| CCc1nc(-c2ccc(-c3ccc(CCC(N)(CO)CO)cc3)cc2)co1 | – | Sprague-Dawley rat | oral, 10 mg/kg, single dose | – | heart rate | no effect |
| [11CH3]c1ccc2nc(C3CCC3)n(-c3ccc4[nH]ncc4c3)c2n1 | – | human female, liver | – | – | absorbed radiation dose | 14.7 µSv/MBq |
| C[C@H]1NSc2nc(=O)c3[nH]ccc3n2Cc2ccc(Cl)cc21 | – | dog, both sexes, plasma | oral, 100 mg/kg/day | relative to: dog over human 15 mg | exposure ratio | 10 |
| COC[C@H]1C[C@H]2CSC(N)=N[C@@]2(c2ccc(F)cc2F)CO1 | metabolic stability | human, liver microsomes | – | – | scaled CLint | 67 mL/min/kg |
| CCCn1c2ccc([N+](=O)[O-])cc2c(=O)n1Cc1ccccc1 | resazurin | peritoneal macrophages, BALB/c mice | 48 h, 10% FBS | – | CC50 | 4.7 ± 1.7 µM |
| CCCCCCCCCCCCCCCC(=O)N[C@@H](CCCCN)C(=O)N[C@@H](CCCCN)C(=O)N[C@@H](CO)C(=O)N[C@@H](CCCNC(=N)N)C(=O)N[C@@H](C)C(=O)N[C@@H](CC(C)C)C(=O)N[C@@H](Cc1ccccc1)C(N)=O | – | cynomolgus monkey, female | 3 mg/kg, day 1 | – | prothrombin time | 11.8 ± 0.5 s |
| N=C(N)NCCC[C@@H]1NC(=O)[C@H](Cc2c[nH]c3ccccc23)NC(=O)[C@@H](CC2CCCCC2)NC(=O)[C@@H]2CCCN2C(=O)[C@@H](NC(=O)CCc2ccccc2)CCCNC1=O | – | C57BL/6J mouse, plasma brain | intravenous, 1 mg/kg single dose | – | MRT(0-inf) | 3.88 h |
| COc1cc(NC(C)=O)c2c(c1O)-c1c(OC)c(OC)cc3c1C(C2)N(C)CC3 (stereo not drawn) | HPLC | male Wistar rat, plasma | oral, 200 mg/kg | – | MRT(0-inf) | 4.04 h |
| Fc1ccc(NCc2cn(-c3ccccc3)nc2-c2ccc(OCc3ccccc3)cc2)cc1Cl | – | rat, gastric mucosa | oral, 60 mg/kg, 17 h | relative to: control score subtracted | ulcer severity index | 0.82 ± 0.35 |
| O=C([O-])CN1CCN(CC(=O)[O-])CCN(CC(=O)NCC2CCC(C(=O)NC(Cc3ccc4ccccc4c3)C(=O)NCCCCC(NC(=O)NC(CCC(=O)O)C(=O)O)C(=O)O)CC2)CCN(CC(=O)[O-])CC1.[44Sc+3] (stereo not drawn) | transmetallation stability | – | 0.5 h, 37 °C, with: Fe3+ 10 mM | – | intact complex | 97.3 ± 0.9% |
| COc1ccc(/C=C/C2=[N+]3C(=C(CO)c4c(C)cc(/C=C/c5ccc(OC)cc5)n4[B-]3(F)F)C(C)=C2C=O)cc1 | – | DMSO/methanol 1:1 | 1 h, with: 645 nm light, 9.00 J/cm2 | – | photostability | unstable |
| NC(=S)N/N=C/c1cc(Cl)ccc1O | cyclic voltammetry | DMF | Cu2+ complex | – | peak current ratio ipa/ipc | 0.15 |
| O=C(O)c1cccc(S(=O)(=O)Nc2ccccc2)c1 | – | human, normal liver function, plasma | intravenous, 400 mg/m^2 belinostat, cycle 1 day -7, geometric mean | relative to: metabolite over belinostat | Cmax metabolic ratio | 0.117 |
| NC12CNCCNCC(NCc3ccc(CNC(=O)CCCC(=O)NCc4ccc(-c5nncnn5)cc4)cc3)(CNCCNC1)CNCCNC2.[64Cu+2] | OLINDA dosimetry | spleen | 48 h pretargeting interval, with: huA33-TCO pretargeting | – | mean absorbed dose | 0.0119 rad/mCi |
| CC[C@H](C)[C@@H]1NC(=O)[C@H](Cc2ccccc2)NC(=O)[C@H](CC(=O)O)NC(=O)[C@H](CCCNC(=N)N)NC(=O)[C@H](Cc2ccccc2)NC(=O)[C@H](Cc2ccccc2)NC(=O)[C@@H](NC(=O)[C@H](CO)NC(=O)[C@H](CC(C)C)NC(=O)[C@H](CCCNC(=N)N)NC(=O)[C@H](CCSC)NC(=O)[C@H](C)N)CCCNC(=O)NCCCC[C@@H](C(=O)N[C@@H](CCC(N)=O)C(=O)N[C@@H](CCCNC(=N)N)C(=O)N[C@@H](CCCCN)C(=O)N[C@@H](CCCCN)C(=O)O)NC1=O | circular dichroism | 20% TFE in PBS | 200 µM, pH 7.4, 25 °C | – | helicity | 4.4% |
| CCN(CC)c1ccc2c(-c3ccccc3C(=O)OCCOCCOCC[18F])c3ccc(=[N+](CC)CC)cc-3oc2c1 | – | rat | dose not given, 60 min post injection | relative to: heart over blood | heart to blood ratio | 5.4 |
| C[C@]12C[C@H](c3ccc(-c4ccc(C(=O)O)cc4)cc3)C3=C4CCC(=O)C=C4CC[C@H]3[C@@H]1CC[C@@]2(O)C(F)(F)C(F)(F)F | – | rat | subcutaneous, 0.5 mg/kg, 0 to 24 h, efficacious exposure, steady state | – | AUC(ss) | 573 ng·h/mL |
| CCCCCCCCCCCCCCCC(=O)N[C@@H](CCCCNC(=O)[C@H](CCCCNC(=O)CCC(=O)NCCN(C)CCNc1ccnc2cc(C(F)(F)F)ccc12)NC(=O)CCC(=O)NCCN(C)CCNc1ccnc2cc(C(F)(F)F)ccc12)C(=O)N[C@@H](CS)C(=O)NCC(=O)NCC(=O)NCC(=O)N[C@@H](C)C(=O)N[C@@H](CCCNC(=N)N)C(=O)N[C@@H](CCCCN)C(=O)N[C@@H](CCCCN)C(=O)N[C@@H](C)C(=O)N[C@@H](C)C(=O)N[C@@H](CCCCN)C(=O)N[C@@H](C)C(=O)N[C@@H](C)C(=O)N[C@@H](CCCNC(=N)N)C(=O)N[C@@H](CCCCN)C(=O)N[C@@H](CCCCN)C(=O)N[C@@H](C)C(=O)N[C@@H](C)C(=O)N[C@@H](CCCCN)C(=O)N[C@@H](C)C(=O)N[C@@H](C)C(=O)N[C@@H](CCCNC(=N)N)C(=O)N[C@@H](CCCCN)C(=O)N[C@@H](CCCCN)C(=O)N[C@@H](C)C(=O)N[C@@H](C)C(=O)N[C@@H](CCCCN)C(=O)N[C@@H](C)C(=O)N[C@@H](C)C(=O)N[C@@H](CCCNC(=N)N)C(=O)N[C@@H](CCCCN)C(=O)N[C@@H](CCCCN)C(=O)N[C@@H](C)C(=O)N[C@@H](C)C(=O)N[C@@H](CCCCN)C(=O)N[C@@H](C)C(N)=O | – | water | 40 min, 25 °C, 140:1 ratio, with: siRNA | – | zeta potential | 14.9 ± 4.2 mV |
| CCCC[C@H](NC(C)=O)C(=O)N[C@H]1CC(=O)NCCCC[C@@H](C(=O)N[C@@H](C(=O)N2CCC[C@@H]2C(N)=O)C(C)C)NC(=O)[C@H](Cc2c[nH]c3ccccc23)NC(=O)[C@H](CCCN=C(N)N)NC(=O)[C@@H](Cc2ccc3ccccc3c2)NC(=O)[C@@H]2CCCN2C1=O | – | healthy dogs, plasma | subcutaneous, 2.25 mg/kg per day, day 5, 24 h post-dose, median | – | plasma histamine | 16.1 ng/mL |
| [11CH3]n1cc(Cc2ccc(OC(F)F)c(-c3cccc(Cl)c3)n2)cn1 | ultrafiltration | monkey, plasma | – | – | fraction unbound | 1.4% |
| CCCC[C@H](NC(=O)CNC(=O)CNC(=O)CN1CCN(CC(=O)O)CCN(CC(=O)O)CCN(CC(=O)O)CC1)C(=O)N[C@H]1CC(=O)NCCCC[C@@H](C(N)=O)NC(=O)[C@H](Cc2c[nH]c3ccccc23)NC(=O)[C@H](CCCNC(=N)N)NC(=O)[C@@H](Cc2ccccc2)NC(=O)[C@H](Cc2c[nH]cn2)NC1=O [gallium-67 labelled] | – | female C57 mice, B16/F1 melanoma | intravenous, 0.037 MBq, 24 h | relative to: tumour over lung | tumour to tissue ratio | 23.4 |
| CN(Cc1ccc(F)cc1)Cc1cc(=O)oc2cc(O)ccc12 | – | human serum | 0.5 mM, 120 min | – | remaining intact compound | > 99% |
| Cn1c(=O)oc2ccc(-c3ccc(CC(C#N)NC(=O)C4CNCCCO4)c(F)c3)cc21 (stereo not drawn) | – | human | oral, 40 mg once daily, TEAE, multiple ascending dose | – | mouth ulceration incidence | 0% |
| CN1/C(=C/C=C/c2cc(-c3ccccc3)cc(-c3ccccc3)[o+]2)C(C)(C)c2ccccc21 | – | male CD-1 mouse, plasma | intravenous, 1 mg/kg, single dose | – | MRT | 0.226 h |
| CC(C)c1cnc(-c2cc(Cl)ccc2F)cc1Nc1ccncc1C(=O)NC(CO)CO | item: hypotension | human patients | oral, dose not given, grade 4 | – | patients with related SAE | 0% |
| CC[C@H](C)[C@H](NC(=O)[C@H](Cc1ccccc1)NC(=O)[C@H](CCCCN)NC(=O)[C@H](CCCNC(=N)N)NC(=O)[C@H](Cc1ccccc1)NC(=O)[C@H](Cc1ccccc1)NC(=O)[C@H](CCCCN)NC(=O)[C@H](CO)NC(=O)[C@H](CC(C)C)NC(=O)[C@H](CCCNC(=N)N)NC(=O)[C@H](CCSC)NC(=O)[C@H](C)N)C(=O)N[C@@H](CC(C)C)C(=O)N[C@@H](CCN)C(=O)N[C@@H](CCCNC(=N)N)C(=O)N[C@@H](CCCCN)C(=O)N[C@@H](CCCCN)C(=O)O | circular dichroism | 20% TFE in PBS | 200 µM, pH 7.4, 25 °C | – | helicity | 11.9% |

A few entries again:
| Structure (SMILES) | test | test system | setting | how to read | endpoint | result |
| --- | --- | --- | --- | --- | --- | --- |
| CCCC[C@H](NC(=O)CNC(=O)CNC(=O)CN1CCN(CC(=O)O)CCN(CC(=O)O)CCN(CC(=O)O)CC1)C(=O)N[C@H]1CC(=O)NCCCC[C@@H](C(N)=O)NC(=O)[C@H](Cc2c[nH]c3ccccc23)NC(=O)[C@H](CCCNC(=N)N)NC(=O)[C@@H](Cc2ccccc2)NC(=O)[C@H](Cc2c[nH]cn2)NC1=O [gallium-67 labelled] | – | female C57 mice, B16/F1 melanoma | intravenous, 0.037 MBq, 24 h | relative to: tumour over lung | tumour to tissue ratio | 23.4 |
| CN(Cc1ccc(F)cc1)Cc1cc(=O)oc2cc(O)ccc12 | – | human serum | 0.5 mM, 120 min | – | remaining intact compound | > 99% |
| Cn1c(=O)oc2ccc(-c3ccc(CC(C#N)NC(=O)C4CNCCCO4)c(F)c3)cc21 (stereo not drawn) | – | human | oral, 40 mg once daily, TEAE, multiple ascending dose | – | mouth ulceration incidence | 0% |
